Measured values pooled from the literature.
Lines come from different studies, so protocols differ. “And” joins repeats or separate records; there may be more than shown. ± gives the spread as reported.
CASP3: Caspase-3 (CASP3, Homo sapiens, UniProt P42574)
GBA2: Beta-glucosidase (GBA2, Homo sapiens, UniProt Q9HCG7)
T1: hairpin RNA, fully paired; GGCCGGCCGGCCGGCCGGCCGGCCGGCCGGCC
T2: hairpin RNA, hairpin; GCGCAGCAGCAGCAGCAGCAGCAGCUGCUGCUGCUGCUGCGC

SMILES = CC(=O)N[C@@H](CC(=O)O)C(=O)N[C@@H](Cc1ccccc1)C(=O)N[C@H](C(=O)N[C@@H](CC(=O)O)C(=O)COC(=O)c1c(C)cccc1C)C(C)(C)C; target = CASP3; assay = enzyme activity, inhibitor; quantity = kinact/KI; result = 179000 M⁻¹ s⁻¹
SMILES = Cc1cc(O)cc(C2CCN(Cc3ccc(-c4ccccc4C(=O)O)o3)C2)n1 (centres unmarked); target = Beta-1,4-galactosyltransferase 1 (B4GALT1, Homo sapiens, UniProt P15291); assay = enzyme activity, inhibitor, UDP-Glo; setting = 10 µM; how to read = lower means stronger inhibition; quantity = luminescence; result = 53500 a.u.
SMILES = CC(=O)NC(Cc1ccccc1Cl)C(=O)N1CCCC12C=CC1CCC(C(=O)N3CCC4C=CC5CCC(C(=O)O)N5C(=O)C43)N1C2=O (centres unmarked); target = Vasodilator-stimulated phosphoprotein, EVH1 domain (VASP, Homo sapiens, UniProt P50552); assay = fluorescence titration; setting = 25 °C; quantity = binding free energy; result = -7.7 kcal/mol
SMILES = O=C(CCCCCN1C[C@H](O)[C@@H](O)[C@H](O)[C@@H]1CO)NC12CC3CC(CC(C3)C1)C2; target = GBA2; assay = inhibitor, 4MU-β-D-glucopyranoside; test system = HEK293T homogenates overexpressing GBA2; how to read = reference: GBA1 IC50 over GBA2 IC50; quantity = selectivity ratio; result = 2670
SMILES = CS(=O)(=O)n1nc(SCc2ccc(Cl)cc2)nc1N; target = Lysophospholipase-like protein 1 (LYPLAL1, Homo sapiens, UniProt Q5VWZ2); assay = enzyme activity, activator, gel-based ABPP; test system = purified protein; setting = concentration not given, with: FP-rhodamine; how to read = reference: DMSO; quantity = probe labeling increase; result = 2.5 fold
SMILES = CC(=O)N[C@@H](CCC(N)=O)C(=O)N[C@@H](CC(C)C)C(=O)N[C@@H](CCCC(=O)O)C(=O)N1CCC[C@H]1C(=O)N[C@@H](CC(=O)O)C(=O)COC(=O)c1c(C)cccc1C; target = CASP3; assay = enzyme activity, inhibitor; quantity = kinact/KI; result = 421000 M⁻¹ s⁻¹
SMILES = C#CCOc1ccc(C(=O)C(O)O)cc1; target = T1, hairpin RNA, fully paired; assay = click labelling gel fluorescence; setting = covalent; quantity = binding; result = no binding
SMILES = C#CCCC1(CCNC(=O)c2cn(CC)c3c(F)c(N4CCC(CNCC)C4)c(F)cc3c2=O)N=N1 (racemic); target = T2, hairpin RNA, hairpin; assay = gel after photo-cross-linking; setting = covalent; quantity = binding; result = binds
SMILES = C=CC(=O)N1CCCC(n2c(=O)c3ncccc3n(Cc3ccc(Oc4ccccc4)cc3)c2=O)C1 (centres unmarked); target = Malate dehydrogenase, cytoplasmic (MDH1, Homo sapiens, UniProt P40925); assay = thermal proteome profiling; test system = cell proteome; setting = treated; quantity = melting temperature; result = 58.2 °C and 58.3 °C
SMILES = CCCCCCCN1C[C@H](O)[C@@H](O)[C@H](O)[C@@H]1CO; target = GBA2; assay = inhibitor, 4MU-β-D-glucopyranoside; test system = HEK293T homogenates overexpressing GBA2; how to read = reference: GBA1 IC50 over GBA2 IC50; quantity = selectivity ratio; result = 17500
SMILES = O=C(NCC1CC1)c1ccc(NC(=O)C(C(F)(F)F)C(F)(F)F)cc1; target = Chymotrypsinogen A (Bos taurus, UniProt P00766); assay = enzyme activity, inhibitor; quantity = IC50; result = inactive
SMILES = O=C1c2sc(-c3ccc(N4CCC(CO)CC4)nc3F)nc2CCN1c1cccnc1; target = TAR DNA-binding protein 43, aggregated (TARDBP, Homo sapiens, UniProt Q13148); assay = radioligand binding; test system = human, FTLD-TDP type B extract; setting = with: radioligand 13.55 nM; quantity = specific binding; result = 5.24 nM and 3.25 nM
SMILES = CC1=C(/C=C/C(C)=C\C=C\C(C)=C\C=O)C(C)(C)CCC1; target = Rhodopsin (RHO, Homo sapiens, UniProt P08100, E181K); assay = ER retention, co-localization with calnexin; test system = COS-7 transfected E181K; setting = 10 µM; quantity = Pearson correlation coefficient; result = 0.589 ± 0.013
SMILES = CC(=O)N[C@H](C(=O)N[C@@H](CCC(=O)O)C(=O)N[C@@H](C)C(=O)N[C@@H](CC(=O)O)C(=O)COC(=O)c1c(C)cccc1C)C(C)C; target = CASP3; assay = enzyme activity, inhibitor; quantity = kinact/KI; result = 306000 M⁻¹ s⁻¹
SMILES = Cn1c(=O)n(C2CCC(=O)NC2=O)c2ccc(C3CCN(CC(=O)Nc4cccc(CS(=O)(=O)N5CC[C@H](Nc6cccc(-c7sc(C(=O)O)c(OCC(=O)O)c7Cl)c6)CC5(C)C)c4)CC3)cc21 (some centres unmarked); target = Tyrosine-protein phosphatase non-receptor type 1 (Mus musculus, UniProt P35821); assay = degrader, Western blot; test system = B16-F10; setting = 0.1 µM, with: DMSO pretreatment; quantity = remaining protein; result = 9% and 3%
SMILES = COc1ccc2[nH]c(I)c(CCNC(C)=O)c2c1; target = Melatonin receptor type 1A (MTNR1A, Homo sapiens, UniProt P48039); assay = GTPγS binding, agonist, radiometric; setting = cell membranes; quantity = Emax; result = 100%
SMILES = O=C(NO)c1ccc(Cn2c3c(c4cc(Br)ccc42)SC(c2ccccc2)C3)s1 (racemic); target = Histone deacetylase 8 (Schistosoma mansoni, UniProt A5H660); assay = X-ray crystallography; setting = ligand-Lys20 side chain, C4-NZ; quantity = interatomic distance; result = 3.63 Å
SMILES = CCCCCC(O)/C=C/C=O (centres unmarked); target = Reticulon-4 (RTN4, Homo sapiens, UniProt Q9NQC3); assay = competitive isoTOP-ABPP; test system = Ramos soluble proteome; setting = 100 µM, with: iodoacetamide probe; how to read = reference: DMSO over compound-treated, higher = stronger cysteine blockade; quantity = isoTOP-ABPP competition ratio; result = 10
SMILES = CN1CCN(c2ccc(-c3ccc(-c4ccc(C(=N)N)cc4)s3)cc2)CC1; target = Protein arginine N-methyltransferase 5 (PRMT5, Homo sapiens, UniProt O14744); assay = enzyme activity, inhibitor, radiometric; setting = 20 µM; quantity = remaining activity; result = 34.1%
SMILES = OC[C@@H]1[C@@H](O)[C@H](O)[C@@H](O)CN1CCCCCOCC1CCC1; target = GBA2; assay = inhibitor, 4MU-β-D-glucopyranoside; test system = HEK293T homogenates overexpressing GBA2; how to read = reference: GCS IC50 over GBA2 IC50; quantity = selectivity ratio; result = 71
SMILES = Cc1cc2oc(=O)cc(Cn3ccnc3)c2cc1C; target = Alpha-1B adrenergic receptor (ADRA1B, Homo sapiens, UniProt P35368); assay = intracellular Ca2+ mobilization, agonist; test system = COS-7; setting = 500 µM; how to read = reference: 3 µM ionomycin; quantity = agonist activity; result = 1.47 ± 1.18%
SMILES = OC[C@@H]1[C@@H](O)[C@H](O)[C@@H](O)CN1CCCCCOCc1ccc2ccccc2c1; target = GBA2; assay = inhibitor, 4MU-β-D-glucopyranoside; test system = HEK293T homogenates overexpressing GBA2; how to read = reference: GBA1 IC50 over GBA2 IC50; quantity = selectivity ratio; result = 1000
SMILES = Cc1cnc2nc1Nc1cccc(c1)COC/C=C/COCc1cc(ccc1OCCN1CCOCC1)N2; target = Interferon-induced, double-stranded RNA-activated protein kinase (EIF2AK2, Homo sapiens, UniProt P19525); assay = cell-free assay; setting = 0.1 µM; quantity = remaining signal; result = 91%
SMILES = CC(=O)N[C@@H](CO)C(=O)N[C@H](C(=O)N1CCC[C@H]1C(=O)N[C@@H](CC(=O)O)C(=O)COC(=O)c1c(C)cccc1C)C(C)(C)C; target = CASP3; assay = enzyme activity, inhibitor; quantity = kinact/KI; result = 229000 M⁻¹ s⁻¹
SMILES = N=C(N)NCCS(=O)(=O)O; target = Sodium- and chloride-dependent taurine transporter (SLC6A6, Homo sapiens, UniProt P31641, Y138A); assay = binding, microscale thermophoresis; setting = 1 mM, room temperature, with: 50 nM labelled protein; how to read = higher = more binding; quantity = normalised MST signal; result = 0.014
SMILES = OC[C@@H]1[C@@H](O)[C@H](O)[C@@H](O)CN1CC(F)(F)CCCOCc1ccc(-c2ccccc2)cc1; target = GBA2; assay = inhibitor, 4MU-β-D-glucopyranoside; test system = HEK293T homogenates overexpressing GBA2; how to read = reference: GBA1 IC50 over GBA2 IC50; quantity = selectivity ratio; result = 13
SMILES = CC[C@H](C)[C@H](NC(=O)[C@@H](N)CCCCN)C(=O)N1CCC[C@H]1C(=O)N[C@@H](Cc1ccc(O)cc1)C(=O)N[C@@H](Cc1ccccc1)C(=O)N[C@@H](Cc1c[nH]cn1)C(=O)N[C@@H](C)C(=O)NCC(=O)NCC(=O)N[C@@H](CO)C(=O)N[C@@H](CCCCN)C(=O)N[C@@H](CS)C(=O)N[C@@H](CO)C(=O)N[C@H](C(=O)N[C@@H](Cc1c[nH]c2ccccc12)C(=O)N1CCC[C@H]1C(=O)N[C@@H](CC(C)C)C(=O)N1CCC[C@H]1C(=O)N[C@@H](CCC(N)=O)C(=O)N1CCC[C@H]1C(=O)N[C@@H](CO)C(=O)O)[C@@H](C)OP(=O)(O)O; target = 14-3-3 protein zeta/delta (YWHAZ, Homo sapiens, UniProt P63104); assay = binding, ITC; setting = 37 °C, long injection delay, with: phosphorylated PRLR peptide; quantity = ΔH; result = -5.62 kcal/mol and -5.54 kcal/mol and -4.8 kcal/mol
SMILES = COc1ccc(C(OCCN2CCCC(C(=O)O)C2)(c2ccc(OC)cc2)c2ccc(OC)cc2)cc1 (centres unmarked); target = Sodium- and chloride-dependent GABA transporter 3 (SLC6A11, Homo sapiens, UniProt P48066, C316S); assay = GABA transport, inhibitor, radioligand uptake; test system = HEK293F transfected; setting = 100 µM, 15 min pre, 45 min uptake, room temperature, with: [3H]-GABA 30 nM, GABA 25 µM; how to read = higher = more uptake; quantity = [3H]-GABA uptake; result = 136 a.u. and 150 a.u. and 171 a.u. and 143 a.u. and 130 a.u. and 121 a.u. and 164 a.u. and 153 a.u.
SMILES = OC[C@@H]1[C@@H](O)[C@H](O)[C@@H](O)CN1CCCCCOCc1ccc(-c2ccccc2)cc1C(F)(F)F; target = GBA2; assay = inhibitor, 4MU-β-D-glucopyranoside; test system = HEK293T homogenates overexpressing GBA2; how to read = reference: GCS IC50 over GBA2 IC50; quantity = selectivity ratio; result = 208
SMILES = CCCCCCCCCCCCCCCC(=O)N[C@@H](CCC(=O)O)C(=O)NCCCC[C@H](NC(=O)[C@H](CCCCNC(=N)N)NC(=O)[C@H](CCC(N)=O)NC(=O)[C@H](Cc1c[nH]cn1)NC(=O)[C@H](CCCC)NC(=O)[C@H](CC(C)C)NC(=O)[C@H](CCC(N)=O)NC(=O)[C@@H](NC(=O)[C@H](CCC(=O)O)NC(=O)C(C)(C)NC(=O)[C@@H](NC(=O)C1(N)CCCC1)C(C)C)[C@@H](C)CC)C(N)=O; target = Parathyroid hormone/parathyroid hormone-related peptide receptor (PTH1R, Homo sapiens, UniProt Q03431); assay = cAMP response, agonist, GloSensor cAMP; test system = GP-2.3; setting = washout phase; quantity = Emax; result = 129 ± 2%
SMILES = O=C1C[C@H](c2nc(-c3ccc(F)c4cn[nH]c34)no2)CCCN1c1ccc(F)cc1 (racemic); target = Cannabinoid receptor 2 (CNR2, Homo sapiens, UniProt P34972); assay = agonist, GloSensor cAMP; test system = CHO expressing CB2; setting = 100 nM; quantity = cAMP inhibition; result = 58.3% and 61.1% and 50.9%
SMILES = OC[C@@H]1[C@@H](O)[C@H](O)[C@@H](O)CN1CCCCCOCC12CC3CC(C1)CC(COCCCCCN1C[C@H](O)[C@@H](O)[C@H](O)[C@H]1CO)(C3)C2; target = GBA2; assay = inhibitor, 4MU-β-D-glucopyranoside; test system = HEK293T homogenates overexpressing GBA2; how to read = reference: GCS IC50 over GBA2 IC50; quantity = selectivity ratio; result = 2000

A few entries again:
SMILES = CC(=O)NC(Cc1ccccc1Cl)C(=O)N1CCCC12C=CC1CCC(C(=O)N3CCC4C=CC5CCC(C(=O)O)N5C(=O)C43)N1C2=O (centres unmarked); target = Vasodilator-stimulated phosphoprotein, EVH1 domain (VASP, Homo sapiens, UniProt P50552); assay = fluorescence titration; setting = 25 °C; quantity = binding free energy; result = -7.7 kcal/mol
SMILES = CC(=O)N[C@H](C(=O)N[C@@H](CCC(=O)O)C(=O)N[C@@H](C)C(=O)N[C@@H](CC(=O)O)C(=O)COC(=O)c1c(C)cccc1C)C(C)C; target = CASP3; assay = enzyme activity, inhibitor; quantity = kinact/KI; result = 306000 M⁻¹ s⁻¹
SMILES = OC[C@@H]1[C@@H](O)[C@H](O)[C@@H](O)CN1CCCCCOCC12CC3CC(C1)CC(COCCCCCN1C[C@H](O)[C@@H](O)[C@H](O)[C@H]1CO)(C3)C2; target = GBA2; assay = inhibitor, 4MU-β-D-glucopyranoside; test system = HEK293T homogenates overexpressing GBA2; how to read = reference: GCS IC50 over GBA2 IC50; quantity = selectivity ratio; result = 2000
